Assay results collected from several papers.
Numbers after ± are the reported error.
T1: Psmc3ip/Mnd1 K63A/Y65A/K67A (Mus musculus); chain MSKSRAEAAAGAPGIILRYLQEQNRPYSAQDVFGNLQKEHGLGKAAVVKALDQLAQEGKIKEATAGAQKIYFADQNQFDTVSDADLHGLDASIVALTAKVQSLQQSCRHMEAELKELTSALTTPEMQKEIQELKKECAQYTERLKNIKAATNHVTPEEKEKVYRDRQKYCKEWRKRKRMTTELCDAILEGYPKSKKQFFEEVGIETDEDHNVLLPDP; chain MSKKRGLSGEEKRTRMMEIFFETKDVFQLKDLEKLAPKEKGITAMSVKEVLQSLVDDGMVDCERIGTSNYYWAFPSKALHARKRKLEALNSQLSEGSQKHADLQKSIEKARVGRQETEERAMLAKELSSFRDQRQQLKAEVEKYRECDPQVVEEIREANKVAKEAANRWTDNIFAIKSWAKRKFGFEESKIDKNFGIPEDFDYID
B1: kaiA (Synechococcus elongatus, UniProt Q79PF6); chain MLSQIAICIWVESTAILQDCQRALSADRYQLQVCESGEMLLEYAQTHRDQIDCLILVAANPSFRAVVQQLCFEGVVVPAIVVGDRDSEDPDEPAKEQLYHSAELHLGIHQLEQLPYQVDAALAEFLRLAPVETMADHIMLMGANHDPELSSQQRDLAQRLQERLGYLGVYYKRDPDRFLRNLPAYESQKLHQAMQTSYREIVLSYFSPNSNLNQSIDNFVNMAFFADVPVTKVVEIHMELMDEFAKKLRVEGRSEDILLDYRLTLIDVIAHLCEMYRRSIPRET
B2: Fmnl3 555-954 N646A (Mus musculus, UniProt Q6ZPF4); chain GLSAIRIKKPIKTKFRLPVFNWTALKPNQINGTVFSELDDEKILEDLDLDRFEELFKTKAQGPALDLICSKNKTAQKAASKVTLLEANRAKALAITLRKAGRSAEEICRAIHTFDLQTLPVDFVECLMRFLPTEAEVKLLRQYERERQPLEELAAEDRFMLLFSKVERLTQRMAGMAFLGNFQDNLQMLTPQLNAIIAASASVKSSQKLKQMLEIILALGNYMNSSKRGAVYGFKLQSLDLLLDTKSTDRKMTLLHFIALTVKEKYPELANFWQELHFVEKAAAVSLENVLLDVKELGRGMELIRRECSIHDNSVLRNFLSTNEGKLDKLQRDAKTAEEAYNAVVRYFGESPKTTPPSVFFPVFVRFIRSYKEAEQENEARKKQEEVMREKQLAQEAKKL
B3: IRF1 (Homo sapiens, UniProt P10914); sequence looked up; chain MPITRMRMRPWLEMQINSNQIPGLIWINKEEMIFQIPWKHAAKHGWDINKDACLFRSWAIHTGRYKAGEKEPDPKTWKANFRCAMNSLPDIEEVKDQSRNKGSSAVRVYRMLPPLTKNQRKERKSKSSRDAKSKAKRKSCGDSSPDTFSDGLSSSTLPDDHSSYTVPGYMQDLEVEQALTPALSPCAVSSTLPDWHIPVEVVPDSTSDLYNFQVSPMPSTSEATTDEDEEGKLPEDIMKLLEQSEWQPTNVDGKGYLLNEPGVQPTSVYGDFSCKEEPEIDSPGGDIGLSLQRVFTDLKNMDATWLDSLLTPVRLPSIQAIPCAP
B4: Fmnl3 555-954 Q746A (Mus musculus, UniProt Q6ZPF4); chain GLSAIRIKKPIKTKFRLPVFNWTALKPNQINGTVFSELDDEKILEDLDLDRFEELFKTKAQGPALDLICSKNKTAQKAASKVTLLEANRAKNLAITLRKAGRSAEEICRAIHTFDLQTLPVDFVECLMRFLPTEAEVKLLRQYERERQPLEELAAEDRFMLLFSKVERLTQRMAGMAFLGNFQDNLQMLTPALNAIIAASASVKSSQKLKQMLEIILALGNYMNSSKRGAVYGFKLQSLDLLLDTKSTDRKMTLLHFIALTVKEKYPELANFWQELHFVEKAAAVSLENVLLDVKELGRGMELIRRECSIHDNSVLRNFLSTNEGKLDKLQRDAKTAEEAYNAVVRYFGESPKTTPPSVFFPVFVRFIRSYKEAEQENEARKKQEEVMREKQLAQEAKKL
B5: HNRNPH1 192-280 (Homo sapiens, UniProt P31943); chain RTHYDPPRKLMAMQRPGPYDRPGAGRGYNSIGRGAGFERMRRGAYGGGYGGYDDYNGYNDGYGFGSDRFGRDLNYCFSGMSDHRYGDGG
B6: FBN1 147-287 (Homo sapiens, UniProt P35555); chain QPVCESGCLNGGRCVAPNRCACTYGFTGPQCERDYRTGPCFTVISNQMCQGQLSGIVCTKTLCCATVGRAWGHPCEMCPAQPHPCRRGFIPNIRTGACQDVDECQAIPGLCQGGNCINTVGSFECKCPAGHKLNEVSQKCE
B7: protein mature (Micrurus tener tener, UniProt G9I930); disulfide bonds; chain NLNQFRLMIKCTNDRVWADFVDYGCYCVARDSNTPVDDLDRCCQAQKQCYDEAVKVHGCKPLVMFYSFECRYLASDLDCSGNNTKCRNFVCNCDRTATLCILTATYNRNNHKIDPSRCQ
B8: Fmnl3 555-954 M742A (Mus musculus, UniProt Q6ZPF4); chain GLSAIRIKKPIKTKFRLPVFNWTALKPNQINGTVFSELDDEKILEDLDLDRFEELFKTKAQGPALDLICSKNKTAQKAASKVTLLEANRAKNLAITLRKAGRSAEEICRAIHTFDLQTLPVDFVECLMRFLPTEAEVKLLRQYERERQPLEELAAEDRFMLLFSKVERLTQRMAGMAFLGNFQDNLQALTPQLNAIIAASASVKSSQKLKQMLEIILALGNYMNSSKRGAVYGFKLQSLDLLLDTKSTDRKMTLLHFIALTVKEKYPELANFWQELHFVEKAAAVSLENVLLDVKELGRGMELIRRECSIHDNSVLRNFLSTNEGKLDKLQRDAKTAEEAYNAVVRYFGESPKTTPPSVFFPVFVRFIRSYKEAEQENEARKKQEEVMREKQLAQEAKKL
B9: DMC1 (Homo sapiens, UniProt Q14565); chain MKEDQVVAEEPGFQDEEESLFQDIDLLQKHGINVADIKKLKSVGICTIKGIQMTTRRALCNVKGLSEAKVDKIKEAANKLIEPGFLTAFEYSEKRKMVFHITTGSQEFDKLLGGGIESMAITEAFGEFRTGKTQLSHTLCVTAQLPGAGGYPGGKIIFIDTENTFRPDRLRDIADRFNVDHDAVLDNVLYARAYTSEHQMELLDYVAAKFHEEAGIFKLLIIDSIMALFRVDFSGRGELAERQQKLAQMLSRLQKISEEYNVAVFVTNQMTADPGATMTFQADPKKPIGGHILAHASTTRISLRKGRGELRIAKIYDSPEMPENEATFAITAGGIGDAKE
B10: Fmnl3 555-954 (Mus musculus, UniProt Q6ZPF4); chain GLSAIRIKKPIKTKFRLPVFNWTALKPNQINGTVFSELDDEKILEDLDLDRFEELFKTKAQGPALDLICSKNKTAQKAASKVTLLEANRAKNLAITLRKAGRSAEEICRAIHTFDLQTLPVDFVECLMRFLPTEAEVKLLRQYERERQPLEELAAEDRFMLLFSKVERLTQRMAGMAFLGNFQDNLQMLTPQLNAIIAASASVKSSQKLKQMLEIILALGNYMNSSKRGAVYGFKLQSLDLLLDTKSTDRKMTLLHFIALTVKEKYPELANFWQELHFVEKAAAVSLENVLLDVKELGRGMELIRRECSIHDNSVLRNFLSTNEGKLDKLQRDAKTAEEAYNAVVRYFGESPKTTPPSVFFPVFVRFIRSYKEAEQENEARKKQEEVMREKQLAQEAKKL

Under “rate constant of priming phosphorylation”, `B1 (kaiA)` is recorded as 0.35 h⁻¹ (KaiC dephosphorylated 1-519 (Synechococcus elongatus, UniProt Q79PF4); SDS-PAGE; added: KaiA; higher = faster).
`Importin-β/IBB-mEGFP IBB (Saccharomyces cerevisiae)` gave a koff of > 0.1 s⁻¹ (NSP1 fragment (Saccharomyces cerevisiae); ellipsometry; apparent, two-component fit).
Under “capping protein protection time”, `B2 (Fmnl3 555-954 N646A)` is recorded as 208 s (ACTA1, pyrene label (Oryctolagus cuniculus, UniProt P68135); elongation termination; formin 100 nM, added: capping protein 20 nM).
`ACE2/pIgR VHH6 Fc fusion ACE2 , Fc at C-terminus (Homo sapiens)` has a koff of 0.000139 s⁻¹ (PIGR (Homo sapiens, UniProt P01833); BLI).
The apparent Kd of `rpoD (Escherichia coli, UniProt P00579)` is reported as 145 nM (rpoB/rpoC core RNA polymerase (Escherichia coli); pausing efficiency; consensus TEC).
Under “PLA signal increase”, `B3 (IRF1)` is recorded as 2.8 fold (SMARCA4 (Homo sapiens, UniProt P51532); proximity ligation; hSAECs; relative to: mock-infected, higher = more interaction).
For `EDN1 mature, Nle at 7`, the EC50 was 2 nM (EDNRB (Homo sapiens, UniProt P24530); Ca2+ release; COS-7; co-transfection).
`B4 (Fmnl3 555-954 Q746A)` has a fraction bound of 0.95 fraction (ACTA1, TMR label (Oryctolagus cuniculus, UniProt P68135); AUC; KCl 50 mM).
For `BUD4 fragment (Saccharomyces cerevisiae)`, the beta-galactosidase activity was 558.67 ± 0.3 Miller units (IQG1 (Saccharomyces cerevisiae, UniProt Q12280); two-hybrid; higher = stronger interaction).
For `B5 (HNRNPH1 192-280)`, binding read “binds” (HNRNPH1 192-449 (Homo sapiens, UniProt P31943); trapping in hydrogel, hydrogel binding; pH 7.5, 4 °C, NaCl 200 mM).
`B6 (FBN1 147-287)` — result for binding: “binds” (FBLN5 42-448 (Homo sapiens, UniProt Q9UBX5); ELISA).
Under “molecule per partner”, `B7 (protein mature)` is recorded as 1.02 ± 0.05 (protein, N-terminal pyroglutamate, disulfides (Micrurus tener tener, UniProt G9I929); ITC; pH 7.4, 15 °C, NaCl 150 mM).
Under “capping protein protection time”, `B8 (Fmnl3 555-954 M742A)` is recorded as 295 s (ACTA1, pyrene label (Oryctolagus cuniculus, UniProt P68135); elongation termination; formin 100 nM, added: capping protein 20 nM).
`B9 (DMC1)`: binding “binds” (T1, Psmc3ip/Mnd1 K63A/Y65A/K67A (Mus musculus); pull-down).
For `B10 (Fmnl3 555-954)`, “capping protein protection time” read 413 s (ACTA1, pyrene label (Oryctolagus cuniculus, UniProt P68135); elongation termination; formin 100 nM, added: capping protein 20 nM).
`C3a mature (UniProt P01027)`: “insulin secretion increase” 40% (C3ar1 (Mus musculus, UniProt O09047); glucose-stimulated insulin secretion, agonist; islets; 100 nM; relative to: no C3a, higher = more secretion).

For quick reference, copied from above:
Under “capping protein protection time”, `B8 (Fmnl3 555-954 M742A)` is recorded as 295 s (ACTA1, pyrene label (Oryctolagus cuniculus, UniProt P68135); elongation termination; formin 100 nM, added: capping protein 20 nM).
